Experimental data pooled from the literature.
Parts stem from different laboratories: compare values within a part only.

Set 1
Target: RING finger protein unkempt homolog, zinc fingers 1-6, GST-SBP tag (UNK, Homo sapiens, UniProt Q9C0B0, residues 30-357)
Method: RNA Bind-n-Seq
Form: RNA
Medium: in vitro
Tested at: not given
Notes: RNA with constant flanks, human-mouse chimeric sites, ends assumed
Reference: input RNA pool
Reading: higher = stronger binding
Endpoint: bound/input enrichment
Constant ends, left off below: GGGAGUUCUACAGUCCGACGAUC … CAACAGAGGAUUGAGCAUCA
Residues (chain): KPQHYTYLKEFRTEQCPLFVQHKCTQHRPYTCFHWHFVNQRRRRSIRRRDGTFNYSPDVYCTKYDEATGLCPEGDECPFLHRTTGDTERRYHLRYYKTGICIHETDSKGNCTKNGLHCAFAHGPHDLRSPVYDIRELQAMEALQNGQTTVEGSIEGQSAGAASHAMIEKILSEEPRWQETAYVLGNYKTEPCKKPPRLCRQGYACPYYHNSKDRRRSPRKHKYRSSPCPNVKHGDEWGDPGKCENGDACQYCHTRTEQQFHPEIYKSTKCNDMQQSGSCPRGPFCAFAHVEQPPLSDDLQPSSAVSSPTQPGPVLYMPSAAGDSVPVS
CACAGAGGAGAUCUGCUGUUCCUCACGAAUUUCCGGGAGGACCCCAUCAGAGCUGGUGAAAUAGUUGUUUUUAAGGUUGAAGGACGAGACAUUCCGAUAGUUCACAGAGUAAUCAAAGUU: 3.49 ratio
CUGAGGAUACCACUGAAGAGACCUUAAAAGAAUCAUUUGAGGGCUCUGUUCGUGCAAGAAUAGUCACUGAUCGGGAAAACUGGGUCCCCAAAGGGUUUGGUUUUGUAGACUUUAAUAGUG: 0.704 ratio
GACUUGGGACCGUCCUGGGCUAGUACAAAUAGCGGCAGUGGAGGCUCGAGAGGAAAGUUUGUUAGUGGAGGCAGUGGUAGAGGCCGUCAUGUACGGUCCUUUACUCGAUAGAUGUGUUCU: 0.62 ratio
GCUCUUGGGAAUGUAAUAAGUGCCUUGGGGGACAAGAGCAAGAGAGCCACCCAUGUCCCUUACAGAGACUCUAAGCUGACAAGACUCCUACAGGAUUCCCUUGGGGGUAACAGCCAAACC: 0.129 ratio
AUUGUUGAAGCGAAUCCACUUUUAGAAGCCUUUGGAAAUGCAAAGACUGUUCGCAACAAUAAUAGCAGUCGAUUUGGAAAAUUUGUAGAAAUACAUUUCAAUGAAAAGAGUUCGGUUGUU: 0.245 ratio
CUGAGGAUACCACUGAAGAGACCUUAAAAGAAUCAUUUGAGGGCUCUCGUUCGGGCAAGGAUAGUUAUGAUCGGGAAACUGGUUCUUCCAAAGGGUUUGGUUUUGUAGACUUUAAUAGUG: 0.979 ratio
GUAGCUGGGACUACAGAAGAAUGCUGAGUGCUCCGGCCUUGCUGAUGACUUCUGAUGUCCCAGCAAAUGUUGGCAUUGUUGACUGCUGAGAAGAUACUUCUGAGGACCCACGUCUAAGGU: 0.0393 ratio
GUAUACGGUUAUCGAGGAAAGGACUGUAGAGCGAAUGUAUACCUGCUUCCCACAGGGAAAAUAGUUUAUUUCAUUGCCUCAGUGGUAGUCCUGUUUAAUUAUGAGGAGAGGACUCAGCGA: 17.4 ratio

Set 2
Target: Prothrombin, mature alpha-thrombin (F2, Homo sapiens, UniProt P00734)
Method: aptamer microarray, sandwich
Form: DNA with 2'F-ANA
Medium: in vitro
Tested at: 200 nM
Notes: whole 15-mer aptamer, many near background
With: Cy3 exosite-II aptamer, 400 nM
Reading: higher = stronger binding
Endpoint: mean fluorescence intensity
Sequence: GGTTGGTGTGGTTGG
2'F-ANA at 1 2 4 5 6 7 8 9 11 13 15: 56.7 a.u.
2'F-ANA at 1 3 4 6 11 14: 65.1 a.u.
2'F-ANA at 8 10 11 13 14: 87.2 a.u.
2'F-ANA at 2 4 10 12 13 15: 115 a.u.
2'F-ANA at 2 5 7 8 10 11 12 13 14: 45.6 a.u.
2'F-ANA at 3 5 6 8 9 11 12 13 15: 140 a.u.
2'F-ANA at 1 5 6 7 8 9 11 13: 90.4 a.u.
2'F-ANA at 4 8 13 14 15: 87.4 a.u.
2'F-ANA at 1 2 5 7 8 9 10 14 15: 45.5 a.u.
2'F-ANA at 2 4 10 11 12 14: 65.7 a.u.
2'F-ANA at 1 2 4 5 6 8 9 10 11 13 14: 57.1 a.u.
2'F-ANA at 2 6 7 11 12 13 15: 442 a.u.
2'F-ANA at 1 3 4 5 6 8 11 12 13 15: 71.3 a.u.
2'F-ANA at 1 5 7 10 11 13 14 15: 52.7 a.u.
2'F-ANA at 3 5 6 7 9 14 15: 48.1 a.u.
2'F-ANA at 2 3 4 5 6 9 12 13 15: 105 a.u.
2'F-ANA at 3 4 5 6 7 8 10 13 14: 46.4 a.u.
2'F-ANA at 3 4 5 7 8 10 11 13 15: 109 a.u.
2'F-ANA at 1 2 5 6 7 8 9 10 12: 48.1 a.u.
2'F-ANA at 1 3 5 6 7 10 11 12 15: 48.7 a.u.
2'F-ANA at 2 4 6 8 10 13: 64.3 a.u.
2'F-ANA at 2 3 4 5 8 9 10 11 12 13: 53.7 a.u.
2'F-ANA at 1 3 4 5 10 11 13: 48.6 a.u.

Set 3
Target: Sal-like protein 4, full length isoform A (SALL4, Homo sapiens, UniProt Q9UJQ4, residues 1-1053)
Chain of UniProt Q9UJQ4 (whole entry, looked up): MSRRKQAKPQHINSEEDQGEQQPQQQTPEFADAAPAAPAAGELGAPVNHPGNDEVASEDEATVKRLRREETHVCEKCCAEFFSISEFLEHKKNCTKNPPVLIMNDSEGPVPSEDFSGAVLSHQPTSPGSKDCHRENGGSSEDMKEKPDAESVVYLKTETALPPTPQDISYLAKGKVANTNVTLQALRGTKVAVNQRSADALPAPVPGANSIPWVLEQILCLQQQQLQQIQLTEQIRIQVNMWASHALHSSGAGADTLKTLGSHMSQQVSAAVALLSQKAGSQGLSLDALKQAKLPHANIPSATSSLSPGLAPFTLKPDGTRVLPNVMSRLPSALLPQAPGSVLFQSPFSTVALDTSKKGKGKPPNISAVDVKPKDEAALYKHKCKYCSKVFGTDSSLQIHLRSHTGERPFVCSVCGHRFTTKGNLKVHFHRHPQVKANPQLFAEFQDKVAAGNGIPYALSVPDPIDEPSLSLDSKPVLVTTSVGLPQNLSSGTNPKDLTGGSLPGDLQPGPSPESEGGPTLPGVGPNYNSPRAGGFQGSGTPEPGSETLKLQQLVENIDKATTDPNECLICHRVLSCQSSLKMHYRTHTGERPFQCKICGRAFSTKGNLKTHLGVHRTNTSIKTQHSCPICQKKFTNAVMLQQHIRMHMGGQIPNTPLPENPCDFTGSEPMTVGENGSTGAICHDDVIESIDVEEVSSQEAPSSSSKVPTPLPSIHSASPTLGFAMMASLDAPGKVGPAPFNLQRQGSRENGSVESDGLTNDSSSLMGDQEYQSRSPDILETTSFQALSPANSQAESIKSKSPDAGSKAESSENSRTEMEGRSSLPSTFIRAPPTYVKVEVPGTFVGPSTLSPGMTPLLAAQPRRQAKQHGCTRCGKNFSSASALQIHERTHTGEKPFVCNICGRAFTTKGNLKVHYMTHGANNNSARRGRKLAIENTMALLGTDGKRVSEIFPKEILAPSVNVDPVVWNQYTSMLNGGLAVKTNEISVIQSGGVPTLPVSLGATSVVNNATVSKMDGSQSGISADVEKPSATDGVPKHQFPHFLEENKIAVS
Method: universal PBM
Form: double-stranded DNA, one strand shown
Medium: in vitro
Tested at: 600 nM
Notes: 8-mer, flanks averaged, mean of replicates
Reading: higher = stronger binding
Endpoint: E-score
AGCTTGTC: -0.136
CTAGAGCC: -0.11
CTACTCGA: -0.00741
CGACGCAC: -0.0445
ACTACGGC: -0.214
ATGTGGAC: 0.0633
AGTTCTGC: -0.0139
AGCCCCGA: -0.29
CGTCCGTC: -0.382
ATACGCAA: 0.133
GATCAATA: 0.378
AGCCTCAG: -0.219
GGTTCGGA: -0.226
AATCGAAG: 0.195
ATGGCAGC: -0.0212
GTGGGGAA: -0.00611
ACCCGACG: -0.293
CTCGAGAC: -0.0745
ACCCGACT: -0.12
AAAAACGA: 0.268

Set 4
Target: Histone acetyltransferase KAT6A, winged helix 2, GST fusion (KAT6A, Homo sapiens, UniProt Q92794, residues 85-181)
Method: protein binding microarray
Form: double-stranded DNA, one strand shown
Medium: in vitro
Tested at: not given
Notes: 8-mer, flanks averaged, mean of 2 arrays, mostly near background
Reference: not given
Reading: higher = stronger binding
Endpoint: E-score
Target sequence (chain): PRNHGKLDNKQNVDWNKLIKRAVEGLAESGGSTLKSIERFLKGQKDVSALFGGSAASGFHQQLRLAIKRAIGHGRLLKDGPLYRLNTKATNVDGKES
CAATCTTA: 0.00492
ACAATTAT: -0.0171
ACACTGCC: 0.144
AATTCCAC: 0.182
GGGGAACC: 0.0171
ATGTAGCC: -0.185
GGGGACTA: 0.0713
GCGTTCCA: 0.0246
GCCGCCGC: 0.212
ATTGTAGA: -0.0124
TATATCGA: 0.0863
AGGATGAC: -0.176
CCAGCCGG: 0.168
ATGCTGTA: 0.0824
GGGATATA: 0.0478
CCATCTAC: -0.168
GGTGGTTA: -0.0172
ACTTGGTC: 0.0919
TCTCTAAA: -0.00817
CGGCCTCA: 0.244
AGCACGAT: -0.00671

Repeated from above (set 3):
CTAGAGCC: -0.11
CTACTCGA: -0.00741
CGACGCAC: -0.0445
ACTACGGC: -0.214
ATGTGGAC: 0.0633
AGTTCTGC: -0.0139
AGCCCCGA: -0.29
CGTCCGTC: -0.382
ATACGCAA: 0.133
GATCAATA: 0.378
